{"data": "Assay results from different studies", "note": "Numbers after ± are the reported error."}
{"SMILES": "COc1cc(Nc2ncc3c(n2)-c2ccc(Cl)cc2C(c2c(F)cccc2OC)=NC3)ccc1C(=O)O", "test system": "female NOD/scid mice, ALL-19 B-precursor ALL xenograft", "conditions": "2.6 mg/kg, 5 days weekly, score scale 0 to 10", "how to read": "direction not given", "quantity": "median response score", "result": 0}
{"SMILES": "CC(C)NCC(O)c1ccc(O)c(O)c1 (stereo not drawn)", "test system": "ventricular cardiomyocytes, C57BL/6 mouse", "conditions": "dose not given, 0.028 s", "quantity": "sarcomere length", "result": "1.72 µm"}
{"SMILES": "CS(=O)(=O)CCNCc1ccc(-c2ccc3ncnc(Nc4ccc(OCc5cccc(F)c5)c(Cl)c4)c3c2)o1", "test": "tumour growth", "test system": "SW48, mouse, subcutaneous SW48 xenograft", "conditions": "oral, 14 days daily, colon cancer", "quantity": "ED50", "result": "106 mg/kg"}
{"SMILES": "CC(C)[C@H](C(=O)Nc1ccc(C(=O)NO)cc1)c1ccccc1", "test": "volumetric MRI", "test system": "human, right meningioma", "conditions": "dose not given, day 170", "quantity": "tumour volume", "result": "8.9 cm3"}
{"SMILES": "N#CCNC(=O)c1ccc(-c2ccnc(Nc3ccc(N4CCOCC4)cc3)n2)cc1", "test system": "patients with myelofibrosis", "conditions": "24 weeks, phase III trials", "quantity": "transfusion independence rate", "result": "54.4%"}
{"SMILES": "[Cl-].[Cl-].[Pt+2].[Ru+2].c1ccc(-c2nc3cc4ccccc4cc3nc2-c2ccccn2)nc1.c1cnc2c(c1)ccc1cccnc12.c1cnc2c(c1)ccc1cccnc12", "test": "chloride substitution, UV-vis kinetics", "test system": "aqueous buffer", "conditions": "concentration not given, pH 7.2, first substitution step, added: thiourea", "quantity": "negative activation entropy", "result": "177 ± 3 J/(mol·K)"}
{"SMILES": "CCO[C@H]1CCN(Cc2c(OC)cc(C)c3[nH]ccc23)[C@H](c2ccc(C(=O)O)cc2)C1", "test system": "PNH patients, blood", "conditions": "oral, 50 mg then 200 mg, week 12, mean absolute change", "how to read": "relative to: baseline", "quantity": "C3d-positive type III RBCs", "result": "-2%"}
{"SMILES": "C=CCn1c(=O)c2cnc(Nc3ccc(N4CCN(C)CC4)cc3)nc2n1-c1ccc2c(n1)[C@@](O)(CC)CC2", "test system": "A2780 xenograft, BALB/c nude mice", "conditions": "oral, 80 mg/kg once daily x 8, day 9", "quantity": "tumour volume difference", "result": "2280 ± 109 mm3"}
{"SMILES": "CN[C@@H]1COc2c(S(=O)(=O)NC(=O)Nc3c4c(cc5c3CCC5)CCC4)cnn2C1", "test": "measured: IL-1β", "test system": "human participants, whole blood ex vivo", "conditions": "900 mg twice daily, multiple doses, 4 h, added: LPS/ATP", "how to read": "relative to: baseline", "quantity": "inhibition", "result": "99.8%"}
{"SMILES": "CN(C(=O)n1cnc(-c2ccc[n+]([O-])c2)c1)C1CCCCC1", "test": "measured: LEA", "test system": "human, plasma", "conditions": "10 mg once daily, day 10", "quantity": "AUC(0-tau)", "result": "122 ng·h/mL"}
{"SMILES": "CN(C)C(=O)c1cc2cnc(Nc3ccc(N4CCNCC4)cn3)nc2n1C1CCCC1", "test": "RNA-seq GSEA, measured: HALLMARK_APICAL_SURFACE", "test system": "MB002 tumour", "conditions": "concentration not given, in vivo", "how to read": "relative to: vehicle, direction not given", "quantity": "GSEA enrichment score", "result": 0.362}
{"SMILES": "NC(=O)c1cnc2[nH]ccc2c1N[C@@H]1[C@@H]2CC3C[C@H]1C[C@@](O)(C3)C2", "test": "flow cytometry, measured: CD4+ effector memory T cells", "test system": "Japanese healthy subjects, peripheral blood", "conditions": "oral, 30 mg twice daily, day 4", "quantity": "change from baseline", "result": "0.08%"}
{"SMILES": "OC(CCN1CCCCC1)(c1ccccc1)C1CC2C=CC1C2 (stereo not drawn)", "test": "resting-state EEG", "test system": "healthy elderly humans", "conditions": "oral, 4 mg, eyes closed, LS mean", "how to read": "relative to: baseline", "quantity": "change, theta power, EEG O1-Pz", "result": "-37.7%"}
{"SMILES": "Cc1ccc(C(=O)Nc2ccnc(S(N)(=O)=O)c2)c(N2CCCC(F)(F)CC2)n1", "test system": "Macaca mulatta, C-nociceptors", "conditions": "intravenous, 0.6 mg/kg bolus then 0.8 mg/kg/h, 60 min", "quantity": "conduction velocity", "result": "100 ± 1.19 % baseline"}
{"SMILES": "CN(C)C(=O)Oc1cccc([N+](C)(C)C)c1", "test": "neuromuscular block reversal", "test system": "rat", "conditions": "dose not given, 10 (unit not given), added: cisatracurium", "how to read": "relative to: T1 twitch", "quantity": "train-of-four ratio", "result": 77.3}
{"SMILES": "O=C1CCc2ccc(OCCCCN3CCN(c4cccc(Cl)c4Cl)CC3)cc2N1", "test system": "patients CYP2D6 UM", "conditions": "12 months", "quantity": "stopping or switching", "result": "50%"}
{"SMILES": "c1ccc(-c2n[nH]cc2-c2ccnc3ccccc23)nc1", "test": "kinase binding, competitor, MIB/MS competition, measured: CKA1", "test system": "Candida albicans cell lysate", "conditions": "10 µM", "how to read": "relative to: DMSO", "quantity": "log2 fold change", "result": 0.0811}
{"SMILES": "COc1cc2cc(-c3ccc(CC(=O)Nc4cc(C(C)(C)C(F)(F)F)no4)cn3)cnc2cc1OC", "test": "RECIST v1.1", "test system": "RET-altered advanced solid tumour patients", "conditions": "oral, 10 mg once daily, phase I", "quantity": "progressive disease as best response", "result": "0%"}
{"note": "For quick reference, copied from above:"}
{"SMILES": "NC(=O)c1cnc2[nH]ccc2c1N[C@@H]1[C@@H]2CC3C[C@H]1C[C@@](O)(C3)C2", "test": "flow cytometry, measured: CD4+ effector memory T cells", "test system": "Japanese healthy subjects, peripheral blood", "conditions": "oral, 30 mg twice daily, day 4", "quantity": "change from baseline", "result": "0.08%"}
{"SMILES": "OC(CCN1CCCCC1)(c1ccccc1)C1CC2C=CC1C2 (stereo not drawn)", "test": "resting-state EEG", "test system": "healthy elderly humans", "conditions": "oral, 4 mg, eyes closed, LS mean", "how to read": "relative to: baseline", "quantity": "change, theta power, EEG O1-Pz", "result": "-37.7%"}
